Assay results gathered from unrelated publications.
Every numbered part comes from another study and shows a few of its results, in no order. Positions count from the first letter of the parent shown.

Block 1 — method: universal PBM; form: double-stranded DNA, one strand shown; matrix: in vitro; tested at: not given; reading: higher = stronger binding
Target: Sal-like protein 4, full length isoform B (SALL4, Homo sapiens, UniProt Q9UJQ4-2, residues 1-616)
Notes: 8-mer, flanks averaged, mean of replicates
With `AACGATGA` the E-score was 0.048.
`GGATTCAC` has an E-score of -0.105.
With `CGTTAGCA` the E-score was 0.0151.
`ATTGCCAG` gave an E-score of 0.00636.
`ACTGGTTA` gave an E-score of 0.14.
With `ATCCTACG` the E-score was -0.0948.
For `AGGACACA`, the E-score was 0.148.

Block 2 — method: RNA Bind-n-Seq; form: RNA; matrix: in vitro; tested at: 365 nM; baseline: no-protein control; reading: higher = stronger binding
Target: RNA binding protein fox-1 homolog 2, RRM domain, GST-SBP tag (RBFOX2, Homo sapiens, UniProt O43251-10, residues 100-194)
Notes: natural RNA segment, single round, ends assumed
Residues (chain): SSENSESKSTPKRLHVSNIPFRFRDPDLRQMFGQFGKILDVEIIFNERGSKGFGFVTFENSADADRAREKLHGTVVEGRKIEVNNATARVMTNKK
Under “RBNS enrichment (R)”, `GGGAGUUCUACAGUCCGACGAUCAAGUUCUCUUUCCCACUGUUUAAUUUGACAAGAGAAGAAUUUGAAGGAUAUGAACAUUUUCAAGAACUCUGCUGAGGUCACUUAGAGCGCCAUCACAACUUAUUUGUGUGUGGAAUUCUCGGGUGCCAA` is recorded as 0.252.
For `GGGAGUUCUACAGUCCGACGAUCUCUGUUUCUGCAGGCAAGGGACAGCGAGGGCUGAGCAUUGGCCUGUAUAAUCUGGUCAGCUUGGACAAUUCCUGCCUCAUUUCCUAUUAAUGUUAGUUUGGAUAAAAAUAUGGAAUUCUCGGGUGCCAA`, “RBNS enrichment (R)” read 0.403.
Under “RBNS enrichment (R)”, `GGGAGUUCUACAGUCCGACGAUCAAUGUCCCCCAUCAUGUGGCCCAACUCUCCUGGCCUGGCCAUCUCCCUCCCCAGAAACAGUGUGCAUGGGUUAUUUUGGAGUGUAGGUGACUUGUUUACUCAUUGAAGCAUGGAAUUCUCGGGUGCCAA` is recorded as 12.4.
`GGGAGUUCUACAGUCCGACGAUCCUGAAAGAAUUGUUAAUGAAACCUCAUUCUUUAUGUUUAUCUCAGUGUCUCUUUACAUGGAUAUUUUGCCUGUCAAAUGAAUUGAUAGCUAAUAAAAGUCAACAAGCCAUUGGAAUUCUCGGGUGCCAA` — result for “RBNS enrichment (R)”: 0.423.
`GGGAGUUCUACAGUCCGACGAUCCUUAGCCCGAGGGUAGAAGUUGAUGUCAUGUCAGAUAGUUGGUGAAGACCUUUCUAGGGGGCCUGGUUCUGGACCCGCUACCACUGGCCUCAAGACUCUUUUGCCUCAGUUGGAAUUCUCGGGUGCCAA`: “RBNS enrichment (R)” 0.34.
Under “RBNS enrichment (R)”, `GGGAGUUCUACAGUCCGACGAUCCAGUUGUUUUAAAAAUACUUAAUAAAAUAAGCUUUUUUCCUGUGGAAGAGAAAUGGUCUCCUUGGUUUUAAAAAUAACUUAGUGUCACGGUACUUUCUCUGUCCUCUCAAUGGAAUUCUCGGGUGCCAA` is recorded as 0.318.
For `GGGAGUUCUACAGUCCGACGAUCCUUUACGCAUCAGCUGCCUUAGACAGCUUCUAGAAAGGAGCGAGCGCUACUUCUUAAGUACUUAAGUGACAUUUAGAUAAUUUAUAGUAAAACUGAAAUUAUUAUUAGCCUGGAAUUCUCGGGUGCCAA`, “RBNS enrichment (R)” read 0.568.
`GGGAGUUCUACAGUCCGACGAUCUCUGAUUCUCAUCAUUGGGAGAUCUUAAAUCUUAGCAAGCAUUAGCAAUAUUAAAUGCCAAAAUUCCAUUGAAACUUUCAAGUUGGAGCAAUUGUCUGUGUUUGAAAAGAUGGAAUUCUCGGGUGCCAA` — result for “RBNS enrichment (R)”: 0.665.
Under “RBNS enrichment (R)”, `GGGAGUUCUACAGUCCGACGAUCUCAGAGAGUCUAUCCUGGUCCCUCUAGUUACGGCAGUCUGUGUCAAGGUGGUCUCUUUUGCUUGCUUCUUUUAAAUGUUUUCCUUUGUAUUUGAUGACAAAUGUUUGUAUUGGAAUUCUCGGGUGCCAA` is recorded as 2.01.
`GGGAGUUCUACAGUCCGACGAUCGCCGUGAAGUCAUCACCAUCUACUCCUGAGCCCAGUGUCAUCUUGUGGCCUGGAGUCGAGGUCUUGGCCAGGACAUAACAAGCUGUGGUCUGGGGUAACAGCCUCUUCCCUGGAAUUCUCGGGUGCCAA`: “RBNS enrichment (R)” 0.296.

Block 3 — target: CCNA1, cyclin fold, Cln2 fusion (human); method: yeast growth competition, sequencing; matrix: yeast; notes: weak parent motif; baseline: not given; reading: higher = stronger binding
Starting sequence: SCAPER docking peptide (human); SNARRSLNFGGST; partner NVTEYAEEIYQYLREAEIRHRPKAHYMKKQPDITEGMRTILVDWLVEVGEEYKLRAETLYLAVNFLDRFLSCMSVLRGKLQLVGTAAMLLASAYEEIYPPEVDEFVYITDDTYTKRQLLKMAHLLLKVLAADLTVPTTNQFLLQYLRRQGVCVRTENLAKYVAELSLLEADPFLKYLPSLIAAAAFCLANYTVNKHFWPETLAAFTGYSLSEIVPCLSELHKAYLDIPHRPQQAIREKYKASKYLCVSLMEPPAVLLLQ
`SNARRSLNFGGET [S12E]`: “normalised enrichment score” 0.959.
For `SNARRSLNFFGST [G10F]`, “normalised enrichment score” read 0.5.
For `SNARRSLNGGGST [F9G]`, “normalised enrichment score” read 0.106.
For `SNARRSLNFGGSS [T13S]`, “normalised enrichment score” read 0.635.

Mixed results
`PhoQ, residues 284 288 289 292 302 303 NLCILV` gave a fold induction of 8.53 (PhoP, residues 12 14 15 18 19 NQGLL (Escherichia coli, UniProt P23836); Sort-seq, refers to: YFP reporter; E. coli; PhoQ-PhoP variant library, with: 10 µM Mg2+; baseline: high Mg2+ state, higher = stronger signaling).

Some of these lines once more (block 1):
`ATTGCCAG` gave an E-score of 0.00636.
`ACTGGTTA` gave an E-score of 0.14.
